Experimental data of several laboratories.
Lines come from different studies, so protocols differ. Numbers after ± are the reported error.
LHPP: Phospholysine phosphohistidine inorganic pyrophosphate phosphatase (LHPP, Homo sapiens, UniProt Q9H008)
Oprd1: Delta-type opioid receptor (Oprd1, Rattus norvegicus, UniProt P33533)
Aminopeptidase N: Aminopeptidase N (Neisseria meningitidis, UniProt Q9JYV4)
CPL: CPL (Toxoplasma gondii, UniProt Q6DMN0)

The affinity loss of `CN(C)CCCSC(=S)N1CCN(C(=O)/C=C/c2coc3ccccc3c2=O)CC1` is reported as 180 fold (Nucleoprotein (N, Tomato spotted wilt virus, UniProt P25999, R94A/Y184A); microscale thermophoresis; relative to: mutant over wild type).
Under “cleavage rate constant k4”, `Nc1nc2c([C@@H]3O[C@@H]4COP(=O)(O)O[C@H]5[C@@H](O)[C@H](n6cnc7c(=O)[nH]c(N)nc76)O[C@@H]5COP(=O)(O)O[C@H]4[C@H]3O)snc2c(=O)[nH]1` is recorded as 0.34 ± 0.01 s⁻¹ (rocR (Pseudomonas aeruginosa, UniProt Q9HX69); substrate; 10 µM, second binding orientation, with: 100 nM enzyme).
`CC[C@H](C)[C@H]1C(=O)O[C@H](C(C)C)C(=O)N(C)[C@@H]([C@@H](C)CC)C(=O)O[C@H](C(C)C)C(=O)N(C)[C@@H]([C@@H](C)CC)C(=O)O[C@H](C(C)C)C(=O)N1C` — result for “thermal stabilization temperature”: > 61 °C (HSP90AB1 (Homo sapiens, UniProt P08238); CETSA; Hs-578T; 20 µM, 1 h).
With `CC(=O)OC1C(C)C(OC2CC3OCOC3C(C)O2)C=COC2(C)Oc3c(C)c(O)c4c(c3C2=O)C(=O)C=C(NC(=O)C(C)=CC=CC(C(C)OC(=O)C(C)(C)CC(=O)O)C(O)C(C)C(O)C1C)C4=O` (stereo not shown) the activity ratio was 10 (rpoB (Escherichia coli K-12, UniProt P0A8V2, D516V); inhibitor; relative to: compound over rifampicin).
`CC(=O)NC(Cc1ccc(Br)c(Cl)c1)C(=O)N[C@@H](C)C(=O)N1CCC[C@H]1C(=O)N1CCC[C@H]1C(=O)N[C@@H](CCC(=O)O)C(=O)N[C@@H](Cc1c[nH]cn1)C(=O)N[C@@H](CO)C(=O)N[C@H](C(=O)N[C@@H](C)C(N)=O)[C@@H](C)OP(=O)(O)O` (stereo partly shown) has an inhibition of 0.54% (CLK1 (Homo sapiens, UniProt P49759); enzyme activity, inhibitor; 10 µM).
`CC(C)P(=[Se])(NP(=[Se])(C(C)C)C(C)C)C(C)C`: “ΔG of binding” -22.1 kJ/mol (Alpha-amylase (Bacillus subtilis, UniProt P00691); fluorescence quenching; concentration not given, pH 6.8, 310 K).
`O=C(O)COc1ccc(Cl)cc1` has an on-rate constant of 29500 M⁻¹ s⁻¹ (Chloride channel protein (Torpedo marmorata, UniProt P21564, C212S); binding to closed state, kinetic model fit; 20 mM).
For `C=C(C)C(=O)Oc1ccc(C(C)(C)c2ccc(OC(=O)C(=C)C)cc2)cc1`, “significant antiandrogenic concentration range” read 0.6 to 20 µM (Androgen receptor (AR, Homo sapiens, UniProt P10275); reporter gene, antagonist; with: 0.1 nM R1881).
`COC(=O)C1C(OC(c2ccc(Cl)cc2)c2ccc(Cl)cc2)CC2CCC1N2C` (single isomer, unassigned): Ki “inactive” (DRD2 (Homo sapiens, UniProt P14416); binding, radioligand displacement; inactive if below 75% at 10000 nM).
With `CC(=O)NCC(=O)NCC(=O)N[C@@H](Cc1ccc(OP(=O)(O)O)cc1)C(=O)NCC(=O)NCC(N)=O` the substrate hydrolysis was 3.34% (LHPP; enzyme activity; concentration not given, 90 min, pH 7.8, with: substrate 100 µM).
For `CC(=O)N[C@H]1C(O)O[C@H](CO)[C@@H](O[C@@H]2O[C@H](CO)[C@H](O)[C@H](O)[C@H]2O)[C@@H]1O` (stereo partly shown), the –TΔS was 7.6 kcal/mol (Galectin-3 (LGALS3, Homo sapiens, UniProt P17931); binding, isothermal titration calorimetry).
With `CC(=O)NCC(=O)NCC(=O)N[C@@H](CCCCNP(=O)(O)O)C(=O)N[C@@H](CCCCN)C(=O)NCC(N)=O` the substrate hydrolysis was 29.8% (LHPP; enzyme activity; concentration not given, 90 min, pH 7.8, with: substrate 100 µM).
`CCCCn1c2ccccc2c2cc(C(=O)c3cccc4ccccc34)ccc21` has an Emax of 163% (CNR1 (Homo sapiens, UniProt P21554); GTPγS binding, agonist; cell membranes).
`CC(C)C[C@H](NC(=O)[C@H](CCC(=O)O)NC(=O)[C@H](C)NC(=O)[C@H](CCC(=O)O)NC(=O)[C@H](CCC(=O)O)NC(=O)[C@H](Cc1c[nH]cn1)NC(=O)[C@H](CCCNC(=N)N)NC(=O)[C@H](CCC(=O)O)NC(=O)[C@H](CC(N)=O)NC(=O)[C@H](CCCCN)NC(=O)[C@H](CC(C)C)NC(=O)[C@H](CCCNC(=N)N)NC(=O)[C@H](CCC(N)=O)NC(=O)[C@H](CC(C)C)NC(=O)[C@H](CCC(=O)O)NC(=O)[C@H](C)NC(=O)[C@H](C)NC(=O)[C@H](C)NC(=O)[C@@H](NC(=O)[C@H](CC(C)C)NC(=O)[C@H](CCCCN)NC(=O)[C@H](CCC(=O)O)NC(=O)[C@@H](NC(=O)[C@H](CO)NC(=O)CN)C(C)C)[C@@H](C)O)C(=O)N[C@@H](CCC(=O)O)C(=O)N[C@@H](CCCNC(=N)N)C(=O)N[C@@H](CC(C)C)C(=O)N[C@@H](CCCCN)C(=O)N[C@@H](CO)C(=O)N[C@@H](CCC(=O)O)C(=O)N[C@@H](Cc1ccc(O)cc1)C(=O)O` has a kon of 126000 M⁻¹ s⁻¹ (Plasminogen (PLG, Homo sapiens, UniProt P00747, C188G/E240D/L256Y); binding, SPR; pH 7.4).
`O=c1c(O)c(-c2cc(O)ccc2O)oc2cc(O)cc(O)c12` has an inhibition of 63.4 ± 2.14% (ACHE (Homo sapiens, UniProt P22303); enzyme activity, inhibitor; 250 µg/mL).
The maximal stimulation of `CCCCc1cc(Cc2ccccc2)cc2c1NCCC2NC(=O)C(N)Cc1c(C)cc(O)cc1C` (stereo not shown) is reported as 25% (Oprd1; GTPγS binding, agonist; C6 cells expressing DOR; relative to: DPDPE at 10 µM).
For `NC(=O)Cc1cc(=O)oc2cc(NC(=O)[C@@H](N)Cc3ccccc3)ccc12`, the Km was > 250 µM (Aminopeptidase N; enzyme activity, substrate; pH 7.5, 37 °C).
`Cc1cc(O)cc(C)c1CC(N)C(=O)NC1CCNc2c(C)cc(Cc3ccccc3)cc21` (stereo not shown) has a maximal stimulation of 71% (Oprd1; GTPγS binding, agonist; C6 cells expressing DOR; relative to: DPDPE at 10 µM).
For `N[C@H](Cc1ccccc1)P(=O)(O)O`, the ΔΔG binding was -0.1 kcal/mol (PAL1 (Petroselinum crispum, UniProt P24481, Y110F); isothermal titration calorimetry; concentration not given; relative to: wild type minus Y110F).
`CC(C)(C)n1ccc(C(=O)N2CCN(c3nc4ccccc4s3)CC2)c1` gave a kmax of 0.0013 s⁻¹ (hh, C-terminal autoprocessing domain (Drosophila melanogaster, UniProt Q02936); inhibitor; 0.8 µM).
The Km of `NC(=O)Cc1cc(=O)oc2cc(NC(=O)[C@@H](N)CCc3ccccc3)ccc12` is reported as 100.8 ± 0.6 µM (Aminopeptidase N; enzyme activity, substrate; pH 7.5, 37 °C).
For `CC[C@H](C)[C@@H]1NC(=O)C(NC(=O)[C@H](C)NC(=O)[C@H](CCC(=O)O)NC(C)=O)CCCC=CCCCC(C(=O)N[C@@H](CCC(N)=O)C(=O)N[C@@H](CCC(N)=O)C(=O)N[C@@H](CC(C)C)C(=O)N[C@@H](CC(C)C)C(=O)N[C@@H](Cc2ccccc2)C(=O)N[C@H](C(=O)N[C@@H](Cc2c[nH]cn2)C(=O)N[C@@H](Cc2ccccc2)C(=O)N[C@@H](CCCNC(=N)N)C(=O)N[C@H](C(=O)NCC(N)=O)[C@@H](C)CC)[C@@H](C)CC)NC(=O)[C@H]([C@@H](C)CC)NC(=O)[C@H](CCCNC(=N)N)NC1=O` (stereo partly shown), “minimum DNA retardation concentration” read 37 µM (HIV-1 integrase and DNA substrate; DNA binding, gel retardation; 2 h, 37 °C, with: radiolabelled oligonucleotide DNA).
The binding enthalpy of `CC[C@H](C)[C@H](NC(=O)[C@H](CC(N)=O)NC(=O)[C@H](CC(N)=O)NC(=O)[C@@H](N)CCCNC(N)=O)C(=O)N1C[C@@H](n2cc([C]34[CH]5[CH]6[CH]7[CH]3[Fe]6754389%10[CH]4[CH]3[CH]8[CH]9[CH]4%10)nn2)C[C@H]1C(=O)N[C@@H](Cc1c[nH]c2ccccc12)C(=O)N[C@@H](CO)C(N)=O` (stereo partly shown) is reported as -14.1 ± 0.6 kcal/mol (env (Human immunodeficiency virus type 1 group M subtype B, UniProt P35961); ITC; concentration not given, pH 7.4, 25 °C).
`CCN(Cc1ccccc1)C(=O)CCc1nc(CN2CCN(C(=O)Cc3ccc(OC)c(OC)c3)CC2)no1` gave an activation V1/2 of -31.1 mV (KCNQ4 (Homo sapiens, UniProt P56696); potassium current, whole-cell patch clamp; CHO, stable; 10 µM).
Under “inactivation rate constant”, `CCCCCCCCP(=O)(Oc1ccccc1)O[C@@H]1O[C@H](CO)[C@@H](O)[C@H](O)[C@H]1F` (stereo partly shown) is recorded as 18.6 min⁻¹ (GBA1 (Homo sapiens, UniProt P04062); enzyme activity, irreversible inhibitor; pH 5.5, 37 °C, with: 2,4-dinitrophenyl beta-D-glucopyranoside).
`CC(C)CCCN(Cc1ccc(F)cc1)c1nc(C#N)nc(N2CCOCC2)n1` has a selectivity ratio of 1.5 (CPL; enzyme activity, inhibitor; relative to: human over Toxoplasma IC50).
With `O=C(O)/C=C/c1ccc(O)cc1` the inhibition was 55.9% (Cholinesterase (BCHE, Homo sapiens, UniProt P06276); enzyme activity, inhibitor, Ellman; 125 µg/mL).
For `N#Cc1nc(N2CCOCC2)nc(N(CCC2CCCCC2)Cc2ccc(F)cc2)n1`, the selectivity ratio was 1.3 (CPL; enzyme activity, inhibitor; relative to: human over Toxoplasma IC50).
For `CC(=O)/C(C#N)=C/c1cccc(C(N)=O)c1`, the -TΔS was -16.7 kJ/mol (Genome polyprotein, 3C protease (Human enterovirus D68, UniProt Q68T42, C1641Y/I1565V/I1594T/R1603K/Y1579H); ITC; enterovirus D68; 25 °C, with: DTT 10 mM).
`CCCN(Cc1ccc(F)cc1)c1nc(C#N)nc(N2CCOCC2)n1` gave a selectivity ratio of 0.27 (CPL; enzyme activity, inhibitor; relative to: human over Toxoplasma IC50).
`CCCC[C@H](N)C(=O)Nc1ccc2c(CC(N)=O)cc(=O)oc2c1` has a Km of 52.8 ± 6 µM (Aminopeptidase N; enzyme activity, substrate; pH 7.5, 37 °C).

Excerpt of the above:
For `CC(=O)N[C@H]1C(O)O[C@H](CO)[C@@H](O[C@@H]2O[C@H](CO)[C@H](O)[C@H](O)[C@H]2O)[C@@H]1O` (stereo partly shown), the –TΔS was 7.6 kcal/mol (Galectin-3 (LGALS3, Homo sapiens, UniProt P17931); binding, isothermal titration calorimetry).
With `CC(=O)NCC(=O)NCC(=O)N[C@@H](CCCCNP(=O)(O)O)C(=O)N[C@@H](CCCCN)C(=O)NCC(N)=O` the substrate hydrolysis was 29.8% (LHPP; enzyme activity; concentration not given, 90 min, pH 7.8, with: substrate 100 µM).
`CCCCn1c2ccccc2c2cc(C(=O)c3cccc4ccccc34)ccc21` has an Emax of 163% (CNR1 (Homo sapiens, UniProt P21554); GTPγS binding, agonist; cell membranes).
`CC(C)C[C@H](NC(=O)[C@H](CCC(=O)O)NC(=O)[C@H](C)NC(=O)[C@H](CCC(=O)O)NC(=O)[C@H](CCC(=O)O)NC(=O)[C@H](Cc1c[nH]cn1)NC(=O)[C@H](CCCNC(=N)N)NC(=O)[C@H](CCC(=O)O)NC(=O)[C@H](CC(N)=O)NC(=O)[C@H](CCCCN)NC(=O)[C@H](CC(C)C)NC(=O)[C@H](CCCNC(=N)N)NC(=O)[C@H](CCC(N)=O)NC(=O)[C@H](CC(C)C)NC(=O)[C@H](CCC(=O)O)NC(=O)[C@H](C)NC(=O)[C@H](C)NC(=O)[C@H](C)NC(=O)[C@@H](NC(=O)[C@H](CC(C)C)NC(=O)[C@H](CCCCN)NC(=O)[C@H](CCC(=O)O)NC(=O)[C@@H](NC(=O)[C@H](CO)NC(=O)CN)C(C)C)[C@@H](C)O)C(=O)N[C@@H](CCC(=O)O)C(=O)N[C@@H](CCCNC(=N)N)C(=O)N[C@@H](CC(C)C)C(=O)N[C@@H](CCCCN)C(=O)N[C@@H](CO)C(=O)N[C@@H](CCC(=O)O)C(=O)N[C@@H](Cc1ccc(O)cc1)C(=O)O` has a kon of 126000 M⁻¹ s⁻¹ (Plasminogen (PLG, Homo sapiens, UniProt P00747, C188G/E240D/L256Y); binding, SPR; pH 7.4).
